Assay results collected from several papers.
Lines come from different studies, so protocols differ. Values joined by “and” are separate records of one study, mostly repeats; a detail may differ. Numbers after ± are the reported error.
Sequence of UniProt P21452 (whole entry, looked up): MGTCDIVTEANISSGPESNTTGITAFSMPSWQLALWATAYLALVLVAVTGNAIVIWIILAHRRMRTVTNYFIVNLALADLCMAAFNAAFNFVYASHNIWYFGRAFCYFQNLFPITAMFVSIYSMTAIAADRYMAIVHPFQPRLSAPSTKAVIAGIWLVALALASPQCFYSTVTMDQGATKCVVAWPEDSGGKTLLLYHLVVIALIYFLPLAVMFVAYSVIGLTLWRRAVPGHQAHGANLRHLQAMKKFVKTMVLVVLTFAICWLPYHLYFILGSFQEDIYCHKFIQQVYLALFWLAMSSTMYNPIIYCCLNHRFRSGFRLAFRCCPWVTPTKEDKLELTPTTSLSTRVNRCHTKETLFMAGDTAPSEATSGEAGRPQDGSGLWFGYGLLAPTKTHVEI
Sequence of UniProt P51957 (whole entry, looked up): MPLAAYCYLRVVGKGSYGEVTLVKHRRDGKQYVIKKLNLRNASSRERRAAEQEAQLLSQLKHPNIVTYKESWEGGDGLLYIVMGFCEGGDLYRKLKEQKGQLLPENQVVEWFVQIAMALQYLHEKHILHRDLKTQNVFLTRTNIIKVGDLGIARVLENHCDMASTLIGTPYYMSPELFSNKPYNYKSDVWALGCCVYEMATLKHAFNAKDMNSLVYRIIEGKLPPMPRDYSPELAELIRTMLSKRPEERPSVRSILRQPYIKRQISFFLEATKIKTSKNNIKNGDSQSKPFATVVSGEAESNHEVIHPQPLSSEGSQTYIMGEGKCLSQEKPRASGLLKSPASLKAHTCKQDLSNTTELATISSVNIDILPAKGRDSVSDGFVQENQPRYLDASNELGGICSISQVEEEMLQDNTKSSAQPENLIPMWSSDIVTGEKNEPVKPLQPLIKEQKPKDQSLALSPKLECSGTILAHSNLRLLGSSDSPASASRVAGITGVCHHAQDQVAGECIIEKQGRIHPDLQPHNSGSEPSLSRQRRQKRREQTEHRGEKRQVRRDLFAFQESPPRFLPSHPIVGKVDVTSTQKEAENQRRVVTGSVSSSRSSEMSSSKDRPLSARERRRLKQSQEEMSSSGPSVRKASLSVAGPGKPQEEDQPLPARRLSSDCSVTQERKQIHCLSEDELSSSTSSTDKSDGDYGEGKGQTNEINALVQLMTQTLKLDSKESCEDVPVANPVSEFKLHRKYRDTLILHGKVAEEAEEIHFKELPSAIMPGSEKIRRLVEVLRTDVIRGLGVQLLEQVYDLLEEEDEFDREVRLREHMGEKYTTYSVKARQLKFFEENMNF

CCCCCCCCCCCCCCCC(=O)N[C@@H](CCC(=O)NCCOCCOCCC(=O)NCCOCCOCCC(=O)NCCCC[C@H](NC(=O)[C@H](CC(=O)O)NC(=O)[C@H](CC(C)C)NC(=O)[C@H](Cc1ccc(O)cc1)NC(=O)[C@H](CCCCN)NC(=O)[C@H](CO)NC(=O)[C@H](Cc1ccc(O)cc1)NC(=O)[C@H](CC(=O)O)NC(=O)[C@H](CO)NC(=O)[C@@H](NC(=O)[C@H](Cc1ccccc1)NC(=O)[C@@H](NC(=O)CNC(=O)[C@H](CCC(N)=O)NC(=O)[C@@H](CO)NC(=O)[C@@H](N)Cc1c[nH]cn1)[C@@H](C)O)[C@@H](C)O)C(=O)N[C@@H](CCCNC(=N)N)C(=O)N[C@@H](CCCNC(=N)N)C(=O)N[C@@H](C)C(=O)N[C@@H](CCC(N)=O)C(=O)N[C@@H](CC(=O)O)C(=O)N[C@@H](Cc1ccccc1)C(=O)N[C@H](C(=O)N[C@@H](CCC(N)=O)C(=O)N[C@@H](Cc1c[nH]c2ccccc12)C(=O)N[C@@H](CC(C)C)C(=O)N[C@@H](CC(C)C)C(=O)N[C@@H](CC(N)=O)C(=O)N[C@H](C(=O)NCC(=O)NCC(=O)N1CCC[C@H]1C(=O)N[C@@H](CO)C(=O)N[C@@H](CO)C(=O)NCC(=O)N[C@@H](C)C(=O)N1CCC[C@H]1C(=O)N1CCC[C@H]1C(=O)N1CCC[C@H]1C(=O)N[C@@H](CO)C(N)=O)[C@@H](C)O)C(C)C)C(=O)O  urea (rhesus monkey, male; subcutaneous, 300 µg/kg once daily, 28 days): 5.2 ± 1.13 mmol/L
CC(=O)c1c(C)c2cnc(Nc3ccc(N4CCNCC4)cn3)nc2n(C2CCCC2)c1=O  AST activity (C57BL/6 mice, blood; 25 mg/kg, P25, dosed P10 to P24): 86 ± 5 U/liter
CC[C@H](C)[C@H](NC(=O)[C@H](C)NC(=O)[C@H](CCCCN)NC(=O)[C@H](CC(C)C)NC(=O)[C@@H](N)Cc1ccccc1)C(=O)N[C@@H](CCCCN)C(=O)N[C@@H](CCCCN)C(=O)N[C@@H](Cc1ccccc1)C(=O)NCC(=O)N[C@@H](CCCCN)C(=O)N[C@@H](CCC(=O)O)C(=O)N[C@@H](Cc1ccccc1)C(=O)N[C@@H](CCCCN)C(=O)N[C@@H](CCCCN)C(=O)N[C@H](C(=O)NCC(=O)N[C@@H](C)C(=O)N[C@@H](CCCCN)C(=O)N[C@@H](CC(C)C)C(=O)N[C@@H](CCCCN)C(=O)O)[C@@H](C)CC  hemolysis (human red blood cells; 64 mg/L, 1 h): 1.12%
CC(C)[C@@H]1NC(=O)[C@H](Cc2ccc(O)cc2)NC(=O)[C@H](Cc2ccccc2)NC(=O)[C@H]([C@@H](C)O)NC(=O)[C@@H](Cc2ccc(O)cc2)NC(=O)CSC[C@H](C(=O)NCCOCCOCCOCCOCCOCCOCCC(N)=O)NC(=O)[C@H](C)NC(=O)[C@H](CO)NC(=O)[C@@H]2CCC[C@@H]2NC(=O)[C@H](Cc2c[nH]cn2)NC(=O)[C@H](CCCNC(=N)N)NC(=O)[C@H](Cc2ccc(O)cc2)NC(=O)[C@H]([C@@H](C)O)NC(=O)[C@H](Cc2ccccc2)NC(=O)[C@H]([C@@H](C)O)NC(=O)[C@H](Cc2ccc(O)cc2)NC(=O)[C@H](Cc2ccccc2)NC1=O  time to complete degradation (simulated gastric fluid; pH 1.3, 37 °C, together with: pepsin): < 30 min
CN(C)[C@H]1C[C@@]23CC[C@@]4(O2)C(=CC[C@]2(C)[C@@H](c5ccc6ccncc6c5)CC[C@H]24)C=C3[C@@H](O)[C@@H]1O  inhibition (Serine/threonine-protein kinase Nek4 (NEK4, Homo sapiens, UniProt P51957); ATP probe labelling, inhibitor, KiNativ profiling; 0.1 µM): 4.9%
CS(C)(=O)=Nc1ccc(-c2ccc(-c3nc4cc(O[C@@H]5CO[C@H]6[C@@H]5OC[C@H]6O)[nH]c4cc3F)cc2)cc1  inhibition (Substance-K receptor (TACR2, Homo sapiens, UniProt P21452); calcium signal, antagonist; 10 µM): 50%
Cc1ccc(OCCN(C)C)cc1C(=O)N[C@H](C)c1cc(-c2ccco2)nc2ccccc12  viability (Vero E6; 15.62 µM): 69.6% and 83.1%
CC[C@H](C)[C@H](NC(=O)[C@H](CCCN)NC(=O)[C@H](CCCNC(=N)N)NC(=O)[C@@H]1CCCN1C(=O)[C@@H]1CCCN1C(=O)[C@H](CCCNC(=N)N)NC(=O)[C@@H]1CCCN1C(=O)[C@H](CCCNC(=N)N)NC(=O)[C@@H]1CCCN1C(=O)[C@H](CC(C)C)NC(=O)[C@H](Cc1ccc(O)cc1)NC(=O)[C@@H]1CCCN1C(=O)[C@@H]1CCCN1C(=O)[C@H](CCCCN)NC(=O)[C@H](CC(=O)O)NC(=O)[C@@H](N)C(C)C)C(=O)N[C@@H](Cc1ccc(O)cc1)C(=O)N[C@@H](CC(N)=O)C(=O)N[C@@H](CCCN)C(N)=O  mean residence time (competitive ELISA; mouse CD-1, female, plasma; subcutaneous, 4.34 µmol/kg): 53 min
Cc1ccc(OCCN(C)C)cc1C(=O)N[C@H](C)c1cc(-c2scnc2C)nc2ccccc12  viability (Vero E6; 3.906 µM): 109% and 108%
CN(C)CCc1c[nH]c2cccc(/N=N/c3ccccc3)c12  trans isomer at photostationary state (light irradiation; solution; together with: light 530 nm): 90%
CSCC[C@H](NC(=O)[C@@H](NC(=O)[C@H](CC(C)C)NC(=O)[C@@H](NC(=O)[C@H](Cc1c[nH]cn1)NC(=O)CCCCCNC(=O)[C@H](CCCNC(=N)N)NC(=O)[C@H](CCCNC(=N)N)NC(=O)[C@H](CCCNC(=N)N)NC(=O)[C@H](CCC(N)=O)NC(=O)[C@H](CCCNC(=N)N)NC(=O)[C@H](CCCNC(=N)N)NC(=O)[C@H](CCCCN)NC(=O)[C@H](CCCCN)NC(=O)[C@H](CCCNC(=N)N)NC(=O)CNC(=O)[C@@H](N)Cc1ccc(O)cc1)C(C)C)C(C)C)C(=O)N[C@@H](CS)C(=O)N[C@@H](C)C(=O)N[C@H](C(N)=O)[C@@H](C)O  bicarbonate (C57BL/6J mice; Alzet osmotic pump, 3 mg/kg, 8 weeks): 25 mmol/L and 27 mmol/L
CC1(C)C(NC(=O)C(=NOC2(C(=O)O)CC2)c2csc(N)n2)C(=O)N1OS(=O)(=O)O (centres unmarked)  LD50 (zebrafish embryos; microinjection, 5 dpf): > 1.69 nmol/embryo
CC(C(=O)O)n1nc(Cn2cc3cc(OCC[18F])c(Cl)cc3n2)c2ccccc2c1=O (racemic)  hydrophilic radiometabolite (HPLC; nonhuman primate, plasma; 120 min post-injection; reference: plasma radioactivity): 13%
O=C(c1cc(Cc2n[nH]c(=O)c3ccccc23)ccc1F)N1CC(CNC2CC2)C1  Cmax (male Wistar Han rat; oral, 30 mg/kg, day 1): 2550 ng/mL
CC[C@H](C)[C@@H]1NC(=O)[C@H](Cc2ccc(O)cc2)NC(=O)CCCSC[C@@H](C(=O)N(CC(=O)N[C@@H](CC(C)C)C(=O)NCC(N)=O)Cc2ccc(F)cc2)NC(=O)[C@H](CC(N)=O)NC(=O)[C@H](CCC(N)=O)NC1=O  deaths (human; intranasal, 50 µg single dose): 0%
CC(C)[C@@H]1NC(=O)CNC(=O)[C@H](CC(N)=O)NC(=O)[C@H](CCCNC(=N)N)NC(=O)[C@H](Cc2ccc(O)cc2)NC(=O)[C@H](C(C)C)NC(=O)[C@@H](NC(=O)[C@@H](NC(=O)[C@H](CC(N)=O)NC(=O)[C@H](Cc2c[nH]c3ccccc23)NC(=O)[C@H](C)NC(=O)[C@H](Cc2ccccc2)NC(=O)CNC(=O)[C@H](CCCCN)NC(=O)[C@H](Cc2ccccc2)NC(=O)[C@H](Cc2ccccc2)NC(=O)[C@H](CCCCN)NC(=O)OCC2c3ccccc3-c3ccccc32)C(C)C)CSSC[C@@H](C(=O)N[C@@H](Cc2c[nH]cn2)C(=O)N[C@@H](CCCNC(=N)N)C(=O)N[C@@H](CCCNC(=N)N)C(=O)N[C@@H](C)C(=O)N[C@@H](CC(N)=O)C(N)=O)NC(=O)[C@H](C(C)C)NC(=O)[C@H](CCCNC(=N)N)NC1=O  platelet distribution width (ICR mice, blood; intraperitoneal, 10 mg/kg, day 5): 15.87 ± 0.09%
O=C1NC2(CC2)COc2ncc(F)cc2[C@H]2COCCN2c2ccn3ncc1c3n2  eosinophil percentage (Sprague-Dawley rats, female, blood; oral, 20 mg/kg/day, end of treatment, 4-week subacute toxicity): 1.1 ± 0.25%

Repeated from above:
CC[C@H](C)[C@H](NC(=O)[C@H](C)NC(=O)[C@H](CCCCN)NC(=O)[C@H](CC(C)C)NC(=O)[C@@H](N)Cc1ccccc1)C(=O)N[C@@H](CCCCN)C(=O)N[C@@H](CCCCN)C(=O)N[C@@H](Cc1ccccc1)C(=O)NCC(=O)N[C@@H](CCCCN)C(=O)N[C@@H](CCC(=O)O)C(=O)N[C@@H](Cc1ccccc1)C(=O)N[C@@H](CCCCN)C(=O)N[C@@H](CCCCN)C(=O)N[C@H](C(=O)NCC(=O)N[C@@H](C)C(=O)N[C@@H](CCCCN)C(=O)N[C@@H](CC(C)C)C(=O)N[C@@H](CCCCN)C(=O)O)[C@@H](C)CC  hemolysis (human red blood cells; 64 mg/L, 1 h): 1.12%
CC(C)[C@@H]1NC(=O)[C@H](Cc2ccc(O)cc2)NC(=O)[C@H](Cc2ccccc2)NC(=O)[C@H]([C@@H](C)O)NC(=O)[C@@H](Cc2ccc(O)cc2)NC(=O)CSC[C@H](C(=O)NCCOCCOCCOCCOCCOCCOCCC(N)=O)NC(=O)[C@H](C)NC(=O)[C@H](CO)NC(=O)[C@@H]2CCC[C@@H]2NC(=O)[C@H](Cc2c[nH]cn2)NC(=O)[C@H](CCCNC(=N)N)NC(=O)[C@H](Cc2ccc(O)cc2)NC(=O)[C@H]([C@@H](C)O)NC(=O)[C@H](Cc2ccccc2)NC(=O)[C@H]([C@@H](C)O)NC(=O)[C@H](Cc2ccc(O)cc2)NC(=O)[C@H](Cc2ccccc2)NC1=O  time to complete degradation (simulated gastric fluid; pH 1.3, 37 °C, together with: pepsin): < 30 min
